# Measurements gathered from unrelated publications.
# Lines come from different studies, so protocols differ.
# Technique: steady-state kinetics
# B1: cyc1 F95H (Streptomyces coelicolor, UniProt Q9K499); chain MHAFPHGTTATPTAIAVPPSLRLPVIEAAFPRQLHPYWPKLQETTRTWLLEKRLMPADKVEEYADGLCYTDLMAGYYLGAPDEVLQAIADYSAWHFVWDDRHDRDIVHGRAGAWRRLRGLLHTALDSPGDHLHHEDTLVAGFADSVRRLYAFLPATWNARFARHFHTVIEAYDREFHNRTRGIVPGVEEYLELRRLTFAHWIWTDLLEPSSGCELPDAVRKHPAYRRAALLSQEFAAWYNDLCSLPKEIAGDEVHNLGISLITHHSLTLEEAIGEVRRRVEECITEFLAVERDALRFADELADGTVRGKELSGAVRANVGNMRNWFSSVYWFHHESGRYMVDSWDDRSTPPYVNNEAAGEK
# B2: TylM1 (Streptomyces fradiae, UniProt P95748); chain MAHSSATAGPQADYSGEIAELYDLVHQGKGKDYHREAADLAALVRRHSPKAASLLDVACGTGMHLRHLADSFGTVEGLELSADMLAIARRRNPDAVLHHGDMRDFSLGRRFSAVTCMFSSIGHLAGQAELDAALERFAAHVLPDGVVVVEPWWFPENFTPGYVAAGTVEAGGTTVTRVSHSSREGEATRIEVHYLVAGPDRGITHHEESHRITLFTREQYERAFTAAGLSVEFMPGGPSGRGLFTGLPGAKGETR
# B3: sacB S422A (Priestia megaterium, UniProt D5DC07); chain KGNDSKDFNNSYGISHITRDNMVKIPQQQNSDQFKVPAFDESTIKNIASAKGKNASGNTIDLDVWDSWPLQNADGTVATYHGYQIVFALAGDPKDSNDTSVYLFYKKAGDKSIDSWKNAGRVFKDSDKFVPNDPHLKNQTQEWSGSGTLTKDGKVRLFYTDYSGKQYGKQTLTTAQVNMSQPNDNTLKVDGVEDYKSIFDGDGKIYQTVQQFIDEGGYDTGDNHTLRDPHYIEDNGHKYLVFEANTGTEDGYQGEDSLYNRAYYGGNNPFFQSEKKKLLEGSNKEKASLANGALGIIELNDDYTLKKVMKPLITSNTVTDEIERANIFKKDGKWYLFTDSRGSKMTIDGIGQDDVYMLGYVSNTLTGKYKPLNDTGLVLHMDLDPNDKTFTYAHFAVPQTKGDNVVITSYMTNRGFYEDNHSTFAPSFLVNIDGSKTSVVKDRVLEQGQLTVDED
# B4: putA (Rhodobacter capsulatus, UniProt D5AN87); chain MTDLSALGPKAKFAPEAEVLQALVAQAALPQPQLDRIAARGADLVARIRAEAKPSLMEHFLAQYGLSTREGVALMCLAEAMLRVPDTATIDALIEDKIAPSDWGKHLGTAASSLVNASTWALMLTGKVLDDGAGGIAGTLRGAMRRLGEPVIRAAVGQAMREMGRQFVLGETIEKALERAEKREAEGYTFSYDMLGEAALTAADAERYRLAYAQAITAIGKAATRGSIAANPGISIKLSALHPRYEVAQEARVMAELVPVVRDLARAAARAGIALHIDAEEQDRLALSLRVMAAVIADPETAGWEGFGAVVQAYGKRAGAAIDALAAMARAAGRRINIRLVKGAYWDAEMKRAQVEGHPGFPLFTSKTGTDVAYICLAAKLFGLNDCIYPQFATHNAHTVAAVLEMAAGRPFEFQRLHGMGARLHDIVLRETGGRCRIYAPVGAHRDLLAYLVRRLLENGANSSFVNQIVNESVPPAEVAACPFAALPTARAPRGLLAPADLFGAGRVNAQGFDLSDPEVLARIEAARDVTLPDAAPIVAGPVSGTLRPVRNPATGAVVAQVTEADAATVALALDAAQVWSAPAATRAAVLCRAADLYEENFGPIFAALAQEAGKTLGDAVSELREAVDFLRYYAAEGAADTRPPRGAVVAISPWNFPLAIFTGQVAAALMAGNAVLAKPAEQTPIIAALAVRLLHQAGVPETALQLLPGDGPTVGAALTRDPRVAGVVFTGSTETAQIIARAMAAHLAPGTPLIAETGGLNAMVVDSTALPEQAVRDVVASAFRSAGQRCSALRCLYVQDDIAPHLIGMLKGAMEELVSGDPARLSTDVGPVIDAEAKAGIETYLAANKARILHRSTAPEGGHFVAPALLQVGGIADLEREIFGPVLHLATFAAEDLPAVIAAINARGYGLTFGLHSRIDARVETVAETIRAGNIYVNRNQIGAVVGSQPFGGEGLSGTGPKAGGPLYLNRFYAPEPVVAVGGWTEAATPILPEARETQLDEIFLPGPTGELNRLTRHQRGPILCLGPGAEAASAQAAAVVALGGQAVQASGAVSPKALETLTPLAGVLWWGAAEMGRAYAQALAVRPGPLVPLITAKPDLAHVAHERHLCVDTTAAGGNAALLAG
# B5: alanine racemase H127A/H166A/H200A (Geobacillus stearothermophilus, UniProt P10724); chain MNDFHRDTWAEVDLDAIYDNVENLRRLLPDDTHIMAVVKANAYGHGDVQVARTALEAGASRLAVAFLDEALALREKGIEAPILVLGASRPADAALAAQQRIALTVFRSDWLEEASALYSGPFPIHFALKMDTGMGRLGVKDEEETKRIVALIERHPHFVLEGLYTAFATADEVNTDYFSYQYTRFLHMLEWLPSRPPLVACANSAASLRFPDRTFNMVRFGIAMYGLAPSPGIKPLLPYPLKEAFSLHSRLVHVKKLQPGEKVSYGATYTAQTEEWIGTIPIGYADGWLRRLQHFHVLVDGQKAPIVGRICMDQCMIRLPGPLPVGTKVTLIGRQGDEVISIDDVARHLETINYEVPCTISYRVPRIFFRHKRIMEVRNAIGRGESSA
# B6: carbamoyl phosphate synthetase large subunit A23F/C24F/I18W (Escherichia coli, UniProt P00968); chain PKRTDIKSILILGAGPWVIGQFFEFDYSGAQACKALREEGYRVILVNSNPATIMTDPEMADATYIEPIHWEVVRKIIEKERPDAVLPTMGGQTALNCALELERQGVLEEFGVTMIGATADAIDKAEDRRRFDVAMKKIGLETARSGIAHTMEEALAVAADVGFPCIIRPSFTMGGSGGGIAYNREEFEEICARGLDLSPTKELLIDESLIGWKEYEMEVVRDKNDNCIIVCSIENFDAMGIHTGDSITVAPAQTLTDKEYQIMRNASMAVLREIGVETGGSNVQFAVNPKNGRLIVIEMNPRVSRSSALASKATGFPIAKVAAKLAVGYTLDELMNDITGGRTPASFEPSIDYVVTKIPRFNFEKFAGANDRLTTQMKSVGEVMAIGRTQQESLQKALRGLEVGATGFDPKVSLDDPEALTKIRRELKDAGADRIWYIADAFRAGLSVDGVFNLTNIDRWFLVQIEELVRLEEKVAEVGITGLNADFLRQLKRKGFADARLAKLAGVREAEIRKLRDQYDLHPVYKRVDTCAAEFATDTAYMYSTYEEECEANPSTDREKIMVLGGGPNRIGQGIEFDYCCVHASLALREDGYETIMVNCNPETVSTDYDTSDRLYFEPVTLEDVLEIVRIEKPKGVIVQYGGQTPLKLARALEAAGVPVIGTSPDAIDRAEDRERFQHAVERLKLKQPANATVTAIEMAVEKAKEIGYPLVVRPSYVLGGRAMEIVYDEADLRRYFQTAVSVSNDAPVLLDHFLDDAVEVDVDAICDGEMVLIGGIMEHIEQAGVHSGDSACSLPAYTLSQEIQDVMRQQVQKLAFELQVRGLMNVQFAVKNNEVYLIEVNPRAARTVPFVSKATGVPLAKVAARVMAGKSLAEQGVTKEVIPPYYSVKEVVLPFNKFPGVDPLLGPEMRSTGEVMGVGRTFAEAFAKAQLGSNSTMKKHGRALLSVREGDKERVVDLAAKLLKQGFELDATHGTAIVLGEAGINPRLVNKVHEGRPHIQDRIKNGEYTYIINTTSGRRAIEDSRVIRRSALQYKVHYDTTLNGGFATAMALNADATEKVISVQEMHAQIK
# B7: SULT1B1 E275K (Homo sapiens, UniProt O43704); chain MLSPKDILRKDLKLVHGYPMTCAFASNWEKIEQFHSRPDDIVIATYPKSGTTWVSEIIDMILNDGDIEKCKRGFITEKVPMLEMTLPGLRTSGIEQLEKNPSPRIVKTHLPTDLLPKSFWENNCKMIYLARNAKDVSVSYYHFDLMNNLQPFPGTWEEYLEKFLTGKVAYGSWFTHVKNWWKKKEEHPILFLYYEDMKENPKEEIKKIIRFLEKNLNDEILDRIIHHTSFEVMKDNPLVNYTHLPTTVMDHSKSPFMRKGTAGDWKNYFTVAQNKKFDAIYETEMSKTALQFRTEI
# B8: enzyme (Comamonas testosteroni, UniProt B7WQT1); chain MMTHEENELLCRVEGDAPMGRLMRRHWTPICLVEEVGEPDGTPVKARAFGEDLVVFRDSEGRVGVMDEYCPHRRASLVYGRNEEGGLRCLYHGWKMDVDGNVLEMASEPAASGMVDKVKHTAYPTQEWAGMVWAYMGPKETMPEFLPPAWAPTADTRVSIAKVLLPCNWAQILEGAIDSAHSSSLHSSDMVPARVDGAKATDKTWLRPSTDKAPRMQVQRTGYGFRYAALRRPLSNAAENDYVRSTVFVAPATALIPPNNLYNVANINVPMDDTNTAFYFIAWGHPSQTPETETWRKFLRQTVGVDLDQNYRPLRNEANKFWQDRNAMKAGNFTGITGFPNQDVAMWLTMGPIADRTHDRLGASDLAIVEFRKQMLDAVKAFEQGAPAIGTGVEAATPTVCSFQAIVPKTTDWRTYDAHYVWLDGQDRPEFEPSYSVKS
# B9: GDA (Homo sapiens, UniProt Q9Y2T3); chain MCAAQMPPLAHIFRGTFVHSTWTCPMEVLRDHLLGVSDSGKIVFLEEASQQEKLAKEWCFKPCEIRELSHHEFFMPGLVDTHIHASQYSFAGSSIDLPLLEWLTKYTFPAEHRFQNIDFAEEVYTRVVRRTLKNGTTTACYFATIHTDSSLLLADITDKFGQRAFVGKVCMDLNDTFPEYKETTEESIKETERFVSEMLQKNYSRVKPIVTPRFSLSCSETLMGELGNIAKTRDLHIQSHISENRDEVEAVKNLYPSYKNYTSVYDKNNLLTNKTVMAHGCYLSAEELNVFHERGASIAHCPNSNLSLSSGFLNVLEVLKHEVKIGLGTDVAGGYSYSMLDAIRRAVMVSNILLINKVNEKSLTLKEVFRLATLGGSQALGLDGEIGNFEVGKEFDAILINPKASDSPIDLFYGDFFGDISEAVIQKFLYLGDDRNIEEVYVGGKQVVPFSSSV
# B10: BaiA2 (Clostridium scindens, UniProt P19337); chain MNLVQDKVTIITGGTRGIGFAAAKIFIDNGAKVSIFGETQEEVDTALAQLKELYPEEEVLGFAPDLTSRDAVMAAVGQVAQKYGRLDVMINNAGITSNNVFSRVSEEEFKHIMDINVTGVFNGAWCAYQCMKDAKKGVIINTASVTGIFGSLSGVGYPASKASVIGLTHGLGREIIRKNIRVVGVAPGVVNTDMTNGNPPEIMEGYLKALPMKRMLEPEEIANVYLFLASDLASGITATTVSVDGAYRP
Molecule,substrate,conditions,Km [µM]
B1 (cyc1 F95H),CC(C)=CCC/C(C)=C/CC/C(C)=C/CO[P@@](=O)(O)OP(=O)(O)O,"pH 6.5, 30 °C, together with: MgCl2 10 mM",0.65
B2 (TylM1),Cc1cn([C@H]2C[C@H](O)[C@@H](COP(=O)(O)OP(=O)(O)O[C@H]3O[C@H](C)[C@@H](O)[C@H](N)[C@H]3O)O2)c(=O)[nH]c1=O,"25 °C, together with: SAM",45
B3 (sacB S422A),OC[C@H]1O[C@@](CO)(O[C@H]2O[C@H](CO)[C@@H](O)[C@H](O)[C@H]2O)[C@@H](O)[C@@H]1O,pH 6.6,19900
"PRP43 (Saccharomyces cerevisiae, UniProt P53131)",O=c1ccn([C@@H]2O[C@H](COP(=O)(O)OP(=O)(O)OP(=O)(O)O)[C@@H](O)[C@H]2O)c(=O)[nH]1,pH 8,120
B4 (putA),O=C(O)[C@@H]1CCCN1,"pH 8, 23 °C",54300
B5,C[C@@H](N)C(=O)O,"pH 9, room temperature, together with: NAD+ 10 mM",800
"enzyme (Actinoalloteichus caeruleus, UniProt M1F4W9)",CSc1c(O)cc(-c2ccccn2)nc1C(=O)N[C@@H](CC(C)C)C(=O)O,"pH 8, 30 °C",440
B6,Nc1ncnc2c1ncn2[C@@H]1O[C@H](COP(=O)(O)OP(=O)(O)OP(=O)(O)O)[C@@H](O)[C@H]1O,"pH 7.6, KCl 100 mM, together with: glutamine 10 mM, ornithine 10 mM",250
B7 (SULT1B1 E275K),Nc1ncnc2c1ncn2[C@@H]1O[C@H](COP(=O)(O)OS(=O)(=O)O)[C@@H](OP(=O)(O)O)[C@H]1O,"pH 7.4, 37 °C, unpaired subunit, together with: 1-naphthol",1.58
"Paox (Mus musculus, UniProt Q8C0L6)",c1ccc(CNCCCCNCc2ccccc2)cc1,"pH 8.6, 30 °C",27
"Saccharopine reductase (Saccharomyces cerevisiae, UniProt P38999)",N[C@@H](CCCCN[C@@H](CCC(=O)O)C(=O)O)C(=O)O,"pH 9, 25 °C, together with: saccharopine",770
"TGL5 (Saccharomyces cerevisiae, UniProt Q12043)",CCCCCCCC/C=C\CCCCCCCC(=O)SCCNC(=O)CCNC(=O)[C@H](O)C(C)(C)COP(=O)(O)OP(=O)(O)OC[C@H]1O[C@@H](n2cnc3c(N)ncnc32)[C@H](O)[C@@H]1OP(=O)(O)O,"pH 7.5, 30 °C, together with: LPA",29.3
"protein (Cecembia lonarensis, UniProt K1KZY4)",C[C@@H]1O[C@@H](Oc2ccc([N+](=O)[O-])cc2)[C@@H](O)[C@H](O)[C@H]1O,"pH 5.5, 35 °C",268
B8 (enzyme),O=C(O)c1ccccc1C(=O)O,"pH 8, 25 °C, apparent",3.6
"POLK (Homo sapiens, UniProt Q9UBT6)",Nc1ccn([C@H]2C[C@H](O)[C@@H](COP(=O)(O)OP(=O)(O)OP(=O)(O)O)O2)c(=O)n1,"pH 7.5, 23 °C, MgCl2 5 mM, together with: G template",0.52
B9 (GDA),Nc1nc2csnc2c(=O)[nH]1,,8
B10 (BaiA2),C[C@H](CCC(=O)SCCNC(=O)CCNC(=O)[C@H](O)C(C)(C)COP(=O)(O)OP(=O)(O)OC[C@H]1O[C@@H](n2cnc3c(N)ncnc32)[C@H](O)[C@@H]1OP(=O)(O)O)[C@H]1CC[C@H]2[C@@H]3CC[C@@H]4C[C@H](O)CC[C@]4(C)[C@H]3C[C@H](O)[C@]12C,"pH 8.7, 37 °C, together with: NAD+",17
"enzyme (Salvia miltiorrhiza, UniProt A0A4Y5RRG0)",Oc1cc(O)c2c(c1)O[C@H](c1ccc(O)c(O)c1)[C@H](O)[C@H]2c1c(O)cc(O)c2c1O[C@H](c1ccc(O)c(O)c1)[C@@H](O)C2,"pH 5, 28 °C",32.1
